# Experimental data of several laboratories.
# Each line is one published result; not all experiments were run side by side. Values joined by “and” are separate records of one study, mostly repeats; a detail may differ. ± marks the error that the study gave.
# HCRTR1: Orexin/Hypocretin receptor type 1 (HCRTR1, Homo sapiens, UniProt O43613)
# ESR1: Estrogen receptor (ESR1, Homo sapiens, UniProt P03372)
# ABL1: Tyrosine-protein kinase ABL1 (ABL1, Homo sapiens, UniProt P00519)
Substance,tested on,assay,system,setting,endpoint,result
Clc1ccc(SCCOCCN2CCCCCC2)cc1,"SMPD1 (Homo sapiens, UniProt P17405)","enzyme activity, inhibitor",,"pH 6.5, together with: sphingomyelin",IC50,3200 nM
COc1cc2c(cc1OC)C(CC1CCCCC1)N(CC(=O)NCc1ccccc1)CC2 (stereo not shown),HCRTR1,"calcium signal, antagonist, fluorescence",,,Kb,> 10000 nM
COc1cc(O)c2c(=O)cc(-c3ccc(O)cc3)oc2c1,"KMO (Homo sapiens, UniProt O15229)","enzyme activity, inhibitor, absorbance",,,IC50,21600 nM
N=C(N)N/N=C/C1=C(Cl)c2ccccc2CC1,ESR1,"reporter gene, luciferase",,,IC50,1300 nM
Cc1cccc(COc2nc(N)nc3nc[nH]c23)c1,"MGMT (Homo sapiens, UniProt P16455)","alkyltransferase activity, inactivator",,"30 min, 37 °C",IC50,250 nM and ~300 nM
CCNC(=O)CCNC(=O)[C@H](O)C(C)(C)COP(=O)(O)OP(=O)(O)OC[C@H]1O[C@@H](n2cnc3c(N)ncnc32)[C@H](O)[C@@H]1OP(=O)(O)O,"N-alpha-acetyltransferase 60, residues 1-184 (NAA60, Homo sapiens, UniProt Q9H7X0)","acetylation activity, inhibitor",,"pH 7.5, residues 1-184",IC50,395000 ± 43300 nM
CC(C)CN(CC(C)C)c1nc(NCCO)nc2c(N(CC(C)C)CC(C)C)nc(NCCO)nc12,"Equilibrative nucleoside transporter 2 (Homo sapiens, UniProt Q14542)",[3H]uridine uptake,PK-15 expressing Equilibrative nucleoside transporter 2,"2 min, pH 7.4, together with: [3H]uridine 0.2 µM",IC50,1410 nM
CC(C)(c1ccc(O)cc1)c1ccc(O)cc1,"Androgen receptor (AR, Homo sapiens, UniProt P10275)","reporter gene, antagonist",CV-1,together with: R1881 5×100 pM,IC50,2340 nM
CC(C)NCc1ccc(C[C@@H]2NC(=O)[C@@H](N(C)C(=O)c3ccc4ccccc4c3)NC(=O)[C@H](Cc3ccccc3)NC(=O)[C@H](N)CSSC[C@@H](C(=O)N[C@@H](Cc3ccc4ccccc4c3)C(N)=O)NC(=O)[C@H](Cc3ccccc3)NC2=O)cc1,"SSTR2 (Homo sapiens, UniProt P30874)","ligand displacement, radioligand",,cell membranes,IC50,> 1000 nM
Cc1sc(Nc2cccc(C(=O)N[C@@H](Cc3ccccc3)C(=O)O)c2)nc1-c1ccc(C(F)(F)F)cc1,ABL1,ADP-Glo kinase,,,IC50,> 100000 nM
O=C(O)c1c(Cl)c(Cl)c(Cl)c(Cl)c1-c1c2cc(I)c(=O)c(I)c-2oc2c(I)c(O)c(I)cc12,"Dual specificity protein phosphatase 5 (Homo sapiens, UniProt Q16690)",phosphatase activity,,"30 min, 1 mM DTT, together with: pNPP",IC50,2600 ± 500 nM
Cc1ccc(-c2nc(Nc3cccc(C(=O)N[C@@H](Cc4ccccc4)C(=O)O)c3)sc2C)cc1,ABL1,ADP-Glo kinase,,,IC50,> 100000 nM
O=S(=O)(C1CC2OC1C(c1ccc(O)cc1)=C2c1ccc(O)cc1)N(CC(F)(F)F)c1ccc(Cl)cc1 (stereo not shown),ESR1,"reporter gene, antagonist, luciferase",,,IC50,930 nM
(+)-episesamin,"FPR1 (Homo sapiens, UniProt P21462)","calcium flux, antagonist",HL-60 cells transfected with FPR1,"30 min pretreatment, room temperature, together with: 5 nM fMLF",IC50,45400 ± 4900 nM
CC(C)[C@H](NC(=O)[C@@H]1CCCN1C(=O)[C@H](CCCNC(=N)N)NC(=O)[C@H](CS)NC(=O)[C@H](Cc1c[nH]c2ccccc12)NC(=O)[C@H](CCCNC(=N)N)NC(=O)[C@@H](Cc1ccccc1)NC(=O)[C@H](Cc1c[nH]cn1)NC(=O)[C@H](CCC(=O)O)NC(=O)[C@H](CS)NC(=O)[C@H](CS)NC(=O)[C@H](CCCCN)NC(=O)[C@@H]1CC(=O)N[C@@H](CCCNC(=N)N)C(=O)N[C@@H](C)C(=O)N[C@@H](CC(=O)O)C(=O)N[C@H](Cc2ccc(O)cc2)C(=O)N1)C(N)=O [technetium-99m labelled],,,"C57 mice, intestines","iv, 0.037 MBq, 2 h",tissue uptake,1.5 ± 0.86 %ID
O=C1c2ccccc2C(Cc2ccncc2)(Cc2ccncc2)c2ccccc21,"KCNQ2 (Homo sapiens, UniProt O43526)","potassium current, inhibitor, whole-cell patch clamp",CHO,"together with: holding -80 mV, step to +20 mV",IC50,1300 nM
COc1cc2c(cc1OC)C(Cc1ccc(OCc3ccccc3)c(OC)c1)N(CC(=O)NCc1ccccc1)CC2 (stereo not shown),HCRTR1,"calcium signal, antagonist, fluorescence",,,Kb,399 nM
CN(C(CCC(=O)O)C(=O)O)S(=O)(=O)CCl (stereo not shown),"FOLH1 (Homo sapiens, UniProt Q04609)","enzyme activity, inhibitor, HPLC",,pH 7.4,IC50,> 100000 nM
[Cl-].[Cl-].[Zn+2],"HVCN1 (Homo sapiens, UniProt Q96D96, D185H/H140A)","proton current, inhibitor, whole-cell voltage clamp",human cells,"pH 6.5, test pulse 120 mV",IC50,11200 nM
CCN(CC)CC1CCN(c2ncc3ncnc(Nc4ccc(F)c(Cl)c4)c3n2)CC1,ABL1,"kinase activity, ADP luminescence",,together with: 200 µM ATP,IC50,> 10000 nM
COCC(=O)O[C@]1(CCN(C)CCCc2nc3ccccc3[nH]2)CCc2cc(F)ccc2[C@@H]1C(C)C,"Voltage-dependent N-type calcium channel subunit alpha-1B (Homo sapiens, UniProt Q00975)","calcium current, inhibitor, automated patch clamp",,"first pulse, tonic block",IC50,32700 nM
"OCC[S+](C[C@@H](O)[C@@H](O)CO)C(CO)CO (single isomer, unassigned)","Si (Rattus norvegicus, UniProt P23739)","isomaltase activity, inhibitor",rat intestinal brush border vesicles,"30 min, pH 6.0, 37 °C, together with: substrate 7.4 mM",IC50,> 341000 nM

# For quick reference, copied from above:
Substance,tested on,assay,system,setting,endpoint,result
COc1cc(O)c2c(=O)cc(-c3ccc(O)cc3)oc2c1,"KMO (Homo sapiens, UniProt O15229)","enzyme activity, inhibitor, absorbance",,,IC50,21600 nM
(+)-episesamin,"FPR1 (Homo sapiens, UniProt P21462)","calcium flux, antagonist",HL-60 cells transfected with FPR1,"30 min pretreatment, room temperature, together with: 5 nM fMLF",IC50,45400 ± 4900 nM
